Assay results gathered from unrelated publications.
Several values in a cell are separate wells, animals, samples, runs or records. ± marks the error that the study gave.
Sequence of UniProt O43614 (whole entry, unmodified, looked up): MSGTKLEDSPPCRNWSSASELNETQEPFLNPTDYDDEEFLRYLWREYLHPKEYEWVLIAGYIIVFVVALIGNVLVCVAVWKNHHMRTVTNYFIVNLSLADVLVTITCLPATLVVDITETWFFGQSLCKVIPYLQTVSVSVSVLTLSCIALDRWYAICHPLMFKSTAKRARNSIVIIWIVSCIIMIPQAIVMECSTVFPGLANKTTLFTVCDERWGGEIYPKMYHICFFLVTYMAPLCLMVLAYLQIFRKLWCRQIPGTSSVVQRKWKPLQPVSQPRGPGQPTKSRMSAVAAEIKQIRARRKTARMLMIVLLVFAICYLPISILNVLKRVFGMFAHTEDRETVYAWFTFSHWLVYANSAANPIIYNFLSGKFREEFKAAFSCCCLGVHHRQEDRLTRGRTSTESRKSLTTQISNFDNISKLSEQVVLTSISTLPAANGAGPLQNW
Sequence of UniProt Q01959 (whole entry, looked up): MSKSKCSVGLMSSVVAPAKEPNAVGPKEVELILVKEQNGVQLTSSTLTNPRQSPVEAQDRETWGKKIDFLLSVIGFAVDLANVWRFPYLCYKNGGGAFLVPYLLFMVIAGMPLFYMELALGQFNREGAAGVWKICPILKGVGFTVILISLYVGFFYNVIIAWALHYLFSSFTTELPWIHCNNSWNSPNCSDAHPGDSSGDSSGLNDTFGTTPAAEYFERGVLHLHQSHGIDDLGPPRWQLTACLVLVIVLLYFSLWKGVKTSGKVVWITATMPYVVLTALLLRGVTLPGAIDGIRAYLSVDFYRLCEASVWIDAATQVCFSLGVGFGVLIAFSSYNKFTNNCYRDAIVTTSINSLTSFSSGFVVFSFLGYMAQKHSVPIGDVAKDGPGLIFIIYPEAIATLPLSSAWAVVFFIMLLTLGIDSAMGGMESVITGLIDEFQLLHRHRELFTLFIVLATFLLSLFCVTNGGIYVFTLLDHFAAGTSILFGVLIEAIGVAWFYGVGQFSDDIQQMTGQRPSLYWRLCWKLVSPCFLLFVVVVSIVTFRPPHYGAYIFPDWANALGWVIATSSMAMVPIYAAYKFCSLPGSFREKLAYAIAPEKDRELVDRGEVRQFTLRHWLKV
Sequence of UniProt P14780 (whole entry, looked up): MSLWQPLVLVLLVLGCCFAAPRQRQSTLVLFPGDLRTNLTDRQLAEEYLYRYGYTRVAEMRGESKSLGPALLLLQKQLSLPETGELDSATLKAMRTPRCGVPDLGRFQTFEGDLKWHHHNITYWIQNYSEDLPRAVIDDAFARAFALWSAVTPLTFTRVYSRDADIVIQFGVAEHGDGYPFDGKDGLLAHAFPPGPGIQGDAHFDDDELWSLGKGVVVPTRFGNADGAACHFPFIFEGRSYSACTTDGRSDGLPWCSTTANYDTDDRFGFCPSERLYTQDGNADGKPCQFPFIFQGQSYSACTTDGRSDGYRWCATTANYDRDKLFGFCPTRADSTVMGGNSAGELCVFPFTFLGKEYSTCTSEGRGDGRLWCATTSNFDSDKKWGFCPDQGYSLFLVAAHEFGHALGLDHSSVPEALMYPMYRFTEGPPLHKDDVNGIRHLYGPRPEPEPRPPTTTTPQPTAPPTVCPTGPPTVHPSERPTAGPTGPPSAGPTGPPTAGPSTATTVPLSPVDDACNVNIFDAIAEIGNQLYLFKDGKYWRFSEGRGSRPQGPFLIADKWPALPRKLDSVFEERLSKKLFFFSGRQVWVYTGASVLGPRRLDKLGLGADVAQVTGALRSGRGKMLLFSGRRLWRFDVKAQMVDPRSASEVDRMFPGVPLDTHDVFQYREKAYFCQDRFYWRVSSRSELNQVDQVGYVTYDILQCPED
Sequence of UniProt P47870 (whole entry, looked up): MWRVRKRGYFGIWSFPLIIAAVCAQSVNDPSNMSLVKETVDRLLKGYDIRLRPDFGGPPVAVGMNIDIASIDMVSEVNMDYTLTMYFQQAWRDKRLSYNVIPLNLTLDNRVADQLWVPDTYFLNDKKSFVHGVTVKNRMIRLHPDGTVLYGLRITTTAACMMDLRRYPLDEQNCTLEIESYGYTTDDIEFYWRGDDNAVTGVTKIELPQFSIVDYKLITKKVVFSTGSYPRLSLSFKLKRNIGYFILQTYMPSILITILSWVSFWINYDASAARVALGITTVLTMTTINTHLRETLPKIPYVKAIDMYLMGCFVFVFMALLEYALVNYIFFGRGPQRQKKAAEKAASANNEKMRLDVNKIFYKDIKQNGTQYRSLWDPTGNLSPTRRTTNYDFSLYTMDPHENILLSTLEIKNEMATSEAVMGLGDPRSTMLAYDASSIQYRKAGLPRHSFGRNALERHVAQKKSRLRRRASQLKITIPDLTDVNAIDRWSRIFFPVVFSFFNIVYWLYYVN
Sequence of UniProt P06241 (whole entry, looked up): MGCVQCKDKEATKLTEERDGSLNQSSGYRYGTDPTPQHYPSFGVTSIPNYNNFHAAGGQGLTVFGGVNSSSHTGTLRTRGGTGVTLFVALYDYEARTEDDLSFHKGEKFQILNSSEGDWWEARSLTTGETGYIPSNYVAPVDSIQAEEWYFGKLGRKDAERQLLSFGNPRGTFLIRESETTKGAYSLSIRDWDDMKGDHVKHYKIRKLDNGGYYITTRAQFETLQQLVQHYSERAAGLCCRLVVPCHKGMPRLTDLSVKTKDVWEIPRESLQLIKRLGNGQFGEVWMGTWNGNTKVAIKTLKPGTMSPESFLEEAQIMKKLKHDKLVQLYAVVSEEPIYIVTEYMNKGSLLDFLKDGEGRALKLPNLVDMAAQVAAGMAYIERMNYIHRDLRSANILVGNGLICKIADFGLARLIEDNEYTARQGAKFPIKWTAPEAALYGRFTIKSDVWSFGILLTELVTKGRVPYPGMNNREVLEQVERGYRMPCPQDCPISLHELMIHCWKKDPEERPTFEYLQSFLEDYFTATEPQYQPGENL
Sequence of UniProt P14867 (whole entry, looked up): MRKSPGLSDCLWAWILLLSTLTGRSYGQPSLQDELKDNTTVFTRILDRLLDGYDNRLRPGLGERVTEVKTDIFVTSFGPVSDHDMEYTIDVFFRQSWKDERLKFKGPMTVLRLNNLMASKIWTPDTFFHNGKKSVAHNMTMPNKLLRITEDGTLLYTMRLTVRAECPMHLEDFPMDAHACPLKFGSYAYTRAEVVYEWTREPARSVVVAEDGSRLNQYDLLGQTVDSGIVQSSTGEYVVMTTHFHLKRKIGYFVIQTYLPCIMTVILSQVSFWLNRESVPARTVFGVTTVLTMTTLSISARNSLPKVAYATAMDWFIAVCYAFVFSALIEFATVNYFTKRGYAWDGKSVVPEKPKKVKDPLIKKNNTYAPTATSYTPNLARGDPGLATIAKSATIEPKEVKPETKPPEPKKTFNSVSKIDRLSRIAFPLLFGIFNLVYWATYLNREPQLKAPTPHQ
Sequence of UniProt P18507 (whole entry, looked up): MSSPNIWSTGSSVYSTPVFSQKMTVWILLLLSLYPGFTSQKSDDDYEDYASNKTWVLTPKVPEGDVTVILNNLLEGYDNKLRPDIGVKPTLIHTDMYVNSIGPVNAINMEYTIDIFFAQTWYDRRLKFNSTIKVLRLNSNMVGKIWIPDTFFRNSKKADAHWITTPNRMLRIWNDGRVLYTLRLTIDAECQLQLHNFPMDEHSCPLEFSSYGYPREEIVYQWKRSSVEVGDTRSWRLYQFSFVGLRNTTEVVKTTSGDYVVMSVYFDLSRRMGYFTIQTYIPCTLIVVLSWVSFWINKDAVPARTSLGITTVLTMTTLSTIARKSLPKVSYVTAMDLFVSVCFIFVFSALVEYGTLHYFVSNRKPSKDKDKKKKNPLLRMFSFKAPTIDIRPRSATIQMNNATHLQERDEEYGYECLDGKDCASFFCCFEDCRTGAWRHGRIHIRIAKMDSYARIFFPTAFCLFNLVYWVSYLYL
Sequence of UniProt P41586 (whole entry, unmodified, looked up): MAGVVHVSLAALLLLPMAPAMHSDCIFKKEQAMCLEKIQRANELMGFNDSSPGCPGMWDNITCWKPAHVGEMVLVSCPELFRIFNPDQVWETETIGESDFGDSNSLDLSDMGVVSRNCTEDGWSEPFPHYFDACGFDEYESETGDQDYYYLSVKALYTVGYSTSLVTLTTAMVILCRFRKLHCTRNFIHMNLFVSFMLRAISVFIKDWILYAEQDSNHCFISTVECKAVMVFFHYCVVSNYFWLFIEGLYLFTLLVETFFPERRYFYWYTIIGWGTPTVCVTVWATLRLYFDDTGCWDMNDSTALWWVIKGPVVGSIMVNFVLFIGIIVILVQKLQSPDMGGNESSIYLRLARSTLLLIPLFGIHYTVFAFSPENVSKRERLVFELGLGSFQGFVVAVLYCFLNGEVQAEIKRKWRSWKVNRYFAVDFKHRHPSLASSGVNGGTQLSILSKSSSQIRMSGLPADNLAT

For `Tunicamycin`, “Gaussia luciferase secretion” read 0.498 (HEK293 expressing GLuc; luminescence; unit not given; relative to: mock).
With `evodiamine` the efficacy was -66.6 ± 19.9% (Cholinesterase (BCHE, Homo sapiens, UniProt P06276); enzyme activity, fluorescence).
`amyloid β-peptide (1–28)` has a remaining substrate of 75.4 ± 2.6% (substrate, LC-MS; phosphate buffer; 10 µM, 4 h, pH 7.4, 25 °C, together with: MINP(β1–14) 1 equiv).
The koff of `nonaarginine` is reported as 1110 ± 111 s⁻¹ (PorA peptide pore; peptide binding, planar bilayer single-channel recording; 0.5 µM, pH 7.4, -30 mV, cis side, 150 mM KCl).
With `maxadilan` the Emax was 69 ± 2% (ADCYAP1R1 (Homo sapiens, UniProt P41586, del89-109); cAMP production, agonist; COS-7; 37 °C, AUC over 20 min).
With `HVLVMSATRR` the MCH was 14 pg and 13.9 pg and 14.2 pg and 14.6 pg (peptide, C57BL/6J mice, male, blood; subcutaneous osmotic pump, 3 mg/kg/day peptide basis, 8 weeks).
Under “peptide retained in cells”, `Ac-LRKLRKRLLRDWLKAFYDKVAEKLKEAF-NH2 (N-acetyl, C-amide)` is recorded as 40 ± 2.3% (THP-1 derived macrophages; peptide; concentration not given, 2 h pulse, 60 min chase, surface peptide removed by heparin).
`(−)-cocaine` — result for “mean open time”: 263 ms (Sodium channel protein type 4 alpha, BTX-activated (Oryctolagus cuniculus, UniProt G1SLL9); channel gating).
For `Ac-TFELQGGGPRGVNL-NH2 (N-acetyl, C-amide)`, the kcat/Km was 88000 ± 20000 M⁻¹ s⁻¹ (Prothrombin (F2, Bos taurus, UniProt P00735); substrate, HPLC; pH 7.4, 25 °C, together with: thrombin 2.2 nM).
`PAALVAC (6-FAM-labelled)`: “substrate release rate constant” 0.00379 h⁻¹ (MMP9 (Homo sapiens, UniProt P14780); substrate, fluorescence; peptide).
With `Picrotoxin` the IC50 was 3.8 µM (GABA-A receptor; alpha-1/beta-2/gamma-2 (Homo sapiens, UniProt P14867+P18507+P47870); receptor activity, antagonist, FLIPR membrane potential; CHO cells).
`cGMP` has a −TΔS of 12 kcal/mol (Potassium/sodium hyperpolarization-activated cyclic nucleotide-gated channel 2, C-terminal region (Hcn2, Mus musculus, UniProt O88703, T592A); binding, ITC).
`Ac-APPIPPPRRKR-NH2 (N-acetyl, C-amide)`: “C–D stretch frequency” 2226.5 ± 0.1 cm⁻¹ (Tyrosine-protein kinase Fyn, SH3 domain (FYN, Homo sapiens, UniProt P06241); binding, FTIR spectroscopy; peptide; 4 mM, pH 7.0, band A, protein complex).
`ibogaine`: “maximal apparent inhibition rate” 5.99 s⁻¹ (SLC6A3 (Homo sapiens, UniProt Q01959); transporter current, inhibitor, electrophysiology; together with: dopamine 30 µM).
Under “abnormal liver function leading to discontinuation”, `heparin sodium` is recorded as 0% (healthy Chinese adult volunteers; continuous intravenous infusion, 8 IU/kg/h, 5 days).
`SFLLRNPNDKYEPF`: “time to new steady-state” ~3 min (BPAEC; item: cytosolic Ca2+; peptide; 100 µM).
`tetrahydrofolate` gave a Km of 47 µM (SHMT2 (Homo sapiens, UniProt P34897, Y105F); substrate, MTHFD2-coupled NADH fluorescence; Y105F mutant, together with: serine 200 mM).
`insulin human` gave a fold change of 0.933 (item: CAMK2A mRNA; EcoHIV-infected mouse, brain; i.p., dose not given; relative to: PBS).
`dynorphin` has a ΔF/F0 of -0.262 and 0.0768 and -0.678 and -0.763 and 0.0266 and -0.296 and -3.35 and -0.0293 (HCRTR2 (Homo sapiens, UniProt O43614, del254-292/I293E/K294R/L160H/M161K/Q254E); sensor fluorescence, fluorescence imaging; HEK293T; concentration not given, unit not given; relative to: baseline).
`aspterric acid` gave an inhibition of 99.2% (root length; Arabidopsis thaliana Col-0 seeds; 50.0 µg/mL, 7 days, dark).
`mitragynine` gave a Km of 1.06 µM (substrate; human liver S9; 10 min, 2).
